# Assay results gathered from unrelated publications.
# Compare with care: the assays were run in different laboratories.
# Target: Ephrin type-B receptor 6 (EPHB6, Homo sapiens, UniProt O15197)
Structure (SMILES),read-out,action,technique,tested at,reference,measurement,result
CNC1C[S+]2CC[S+]3CC[S+](C1)[Ru-4]321([N]=C=S)[n]2c3ccc(OC)cc3c3c4c(c5cc(F)c[n+]1c5c32)C(=O)NC4=O (stereo not drawn),,,KinomeScan,0.1 µM,untreated,remaining binding,93%
Nc1ncc2c(n1)-c1c([nH]c3ccc(C4=CCOCC4)cc13)CCC2,binding,,competition with immobilised ligand,1 µM,,remaining binding,100%
COc1c(Cl)cccc1Nc1c(-c2ccncc2C#C[C@@]2(C)CCCN2C(=O)/C=C/CN(C)C)[nH]c2c1C(=O)NCC2,cell-free assay,,competition with immobilised ligand,3 µM,,remaining binding,50%
COc1cc(Nc2nccc(-c3cnn4nc(OC)ccc34)n2)cc(C(F)(F)F)c1,binding,,competition with immobilised ligand,1 µM,,remaining binding,73%
C=CC(=O)N1CCCC(n2c(=O)c3ncccc3n(Cc3ccc(Oc4ccccc4)cc3)c2=O)C1 (stereo not drawn),cell-free assay,,competition with immobilised ligand,1 µM,,remaining binding,78%
CNC(=O)C1CCN(c2cc(C)c(F)cc2NC(=O)c2ccc(-c3cc(O)ccc3C)c(C)c2)CC1,binding,,competition with immobilised ligand,1 µM,,remaining binding,79%
C=CC(=O)N1CCc2ccc(-n3c(=O)ccc4cnc5ccc(-c6cnn(C)c6)cc5c43)cc21,,,KINOMEscan,1 µM,DMSO control,remaining binding,92%
CCN1CCN(Cc2ccc(C(=O)Nc3ccc(C)c(NCc4cnc5[nH]ccc5c4OC)c3)cc2C(F)(F)F)CC1,binding,,competition with immobilised ligand,1 µM,,remaining binding,12%
CC(C)=CC1OC(C)(C)C2C=C3C(=O)C(Cl)=CC(O)C3C3C(O)C4OC4C(=O)C132 (stereo not drawn),cell-free assay,,competition with immobilised ligand,10 µM,,remaining binding,92%
Cc1cnc2nc1Nc1cccc(c1)COC/C=C/COCc1cc(ccc1OCCN1CCOCC1)N2,binding,,,0.1 µM,,remaining binding,78%
Cc1ccc(-c2c(/C=C(\C#N)C(=O)NC(C)C)n(CCCO)c3ncnc(N)c23)cc1,cell-free assay,,competition with immobilised ligand,1 µM,,remaining binding,100%
COc1cc(Nc2nc(C)cc(-c3cnn4nc(OC)ccc34)n2)cc(C(F)(F)F)c1,,inhibitor,,1 µM,control,remaining activity,78%

# Repeated from above:
Structure (SMILES),read-out,action,technique,tested at,reference,measurement,result
Cc1ccc(-c2c(/C=C(\C#N)C(=O)NC(C)C)n(CCCO)c3ncnc(N)c23)cc1,cell-free assay,,competition with immobilised ligand,1 µM,,remaining binding,100%
